Experimental data from different studies.
Every numbered part comes from another study and shows a few of its results, in no order. Substitutions count along the parent as printed.

Set 1 — method: protein-binding microarray; form: double-stranded DNA, one strand shown; medium: in vitro; concentration: 2200 nM top; notes: 60-bp whole probe; together with: salmon DNA 0.4 mg/ml; relative to: random background probes; reading: higher = stronger binding; all sequences stand within: GCCTAGCAC … GTCTTGATTCGCTTGACGCTGCTG
Target: Interferon regulatory factor 7, full length, phosphomimetic (IRF7, Homo sapiens, UniProt Q92985, residues 1-503, S471D/S472D/S475D/S476D/S477D/S483D/S484D/S487D)
Sequence of UniProt Q92985 (whole entry, unmodified, looked up): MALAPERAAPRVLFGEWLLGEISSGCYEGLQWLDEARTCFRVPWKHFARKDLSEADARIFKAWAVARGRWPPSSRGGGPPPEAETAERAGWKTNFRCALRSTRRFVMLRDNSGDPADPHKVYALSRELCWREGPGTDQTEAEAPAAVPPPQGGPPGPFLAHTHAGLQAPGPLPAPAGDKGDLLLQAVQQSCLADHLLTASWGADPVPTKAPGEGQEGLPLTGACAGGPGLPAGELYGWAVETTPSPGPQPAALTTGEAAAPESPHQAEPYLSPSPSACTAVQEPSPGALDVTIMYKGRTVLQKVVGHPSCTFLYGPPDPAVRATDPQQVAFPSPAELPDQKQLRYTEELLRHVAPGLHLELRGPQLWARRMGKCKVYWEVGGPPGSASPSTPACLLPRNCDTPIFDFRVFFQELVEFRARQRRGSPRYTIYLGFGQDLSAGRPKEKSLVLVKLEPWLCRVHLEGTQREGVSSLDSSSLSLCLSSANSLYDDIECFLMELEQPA
Strand	fitted relative affinity [z-score]
TTAGGACTCGGGACTGGGTTAGTGCTA	-0.612
TTGTTTTTCATTATTGTCTTGTGCTAG	2.66
GACGCTATCGGGTTTCGGGACGTGCTA	1.84
TCACGTCTCCACCTGGGACTGTGCTAG	0.66
TTAGATTTCGGGTTTCGGTTAGTGCTA	7.17

Set 2 — method: protein binding microarray; form: double-stranded DNA, one strand shown; medium: in vitro; concentration: not given; relative to: not given; reading: higher = stronger binding
Target: Histone acetyltransferase KAT6A, winged helix 2, GST fusion (KAT6A, Homo sapiens, UniProt Q92794, residues 85-181)
Notes: 8-mer, flanks averaged, mean of 2 arrays, mostly near background
Residues (chain): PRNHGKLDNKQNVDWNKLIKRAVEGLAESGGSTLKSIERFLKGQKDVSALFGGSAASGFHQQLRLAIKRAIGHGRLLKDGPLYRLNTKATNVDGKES
Strand	E-score
CTTTGTTC	0.0768
CCCAAGAC	-0.0047
GAGAGCGC	-0.0247
CCGCTCAC	0.0492

Set 3 — target: CCNB2, cyclin fold, Cln2 fusion (human); method: yeast growth competition, sequencing; medium: yeast; notes: weak parent motif; relative to: not given; reading: higher = stronger binding
Starting sequence: RBL1 docking peptide (human); GSAKRRLFGEDPP; partner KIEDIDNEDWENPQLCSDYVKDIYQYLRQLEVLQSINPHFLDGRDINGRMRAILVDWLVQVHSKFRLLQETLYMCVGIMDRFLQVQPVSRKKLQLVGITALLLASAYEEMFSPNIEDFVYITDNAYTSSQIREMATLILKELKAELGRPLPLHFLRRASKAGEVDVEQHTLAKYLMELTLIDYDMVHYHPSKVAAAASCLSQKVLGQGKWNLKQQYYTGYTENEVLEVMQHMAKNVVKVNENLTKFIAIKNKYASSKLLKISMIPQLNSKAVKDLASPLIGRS
Substitution	normalised enrichment score
G9S	0.521
A3W	-0.0614
P12L	0.0826

Single results of other studies
Substance	target	test	system	conditions	how to read	measurement	result
PhoQ, residues 284 288 289 292 302 303 SSYNSA	PhoP, residues 12 14 15 18 19 NMSFL (Escherichia coli, UniProt P23836)	Sort-seq, refers to: YFP reporter	E. coli	PhoQ-PhoP variant library, together with: 10 µM Mg2+	relative to: high Mg2+ state, higher = stronger signaling	fold induction	11.7

A few entries again (set 1):
Strand	fitted relative affinity [z-score]
GACGCTATCGGGTTTCGGGACGTGCTA	1.84
TCACGTCTCCACCTGGGACTGTGCTAG	0.66
